{"data": "Measurements collected from several papers", "note": "Numbered parts are unrelated; each lists some results of a single study. Changes are numbered by the printed parent chain."}
{"data": "Sample 1", "target": "OGT, full length, His-tagged (human)", "method": "phage display, sequencing", "sample": "in vitro", "concentration": "1 µg OGT", "notes": "single substitutions, 15-mer displayed peptide, unchanged parent 5.27", "baseline": "input library", "reading": "higher = stronger binding", "parent": "peptide; GDFPVMFMPKYSIIY; partner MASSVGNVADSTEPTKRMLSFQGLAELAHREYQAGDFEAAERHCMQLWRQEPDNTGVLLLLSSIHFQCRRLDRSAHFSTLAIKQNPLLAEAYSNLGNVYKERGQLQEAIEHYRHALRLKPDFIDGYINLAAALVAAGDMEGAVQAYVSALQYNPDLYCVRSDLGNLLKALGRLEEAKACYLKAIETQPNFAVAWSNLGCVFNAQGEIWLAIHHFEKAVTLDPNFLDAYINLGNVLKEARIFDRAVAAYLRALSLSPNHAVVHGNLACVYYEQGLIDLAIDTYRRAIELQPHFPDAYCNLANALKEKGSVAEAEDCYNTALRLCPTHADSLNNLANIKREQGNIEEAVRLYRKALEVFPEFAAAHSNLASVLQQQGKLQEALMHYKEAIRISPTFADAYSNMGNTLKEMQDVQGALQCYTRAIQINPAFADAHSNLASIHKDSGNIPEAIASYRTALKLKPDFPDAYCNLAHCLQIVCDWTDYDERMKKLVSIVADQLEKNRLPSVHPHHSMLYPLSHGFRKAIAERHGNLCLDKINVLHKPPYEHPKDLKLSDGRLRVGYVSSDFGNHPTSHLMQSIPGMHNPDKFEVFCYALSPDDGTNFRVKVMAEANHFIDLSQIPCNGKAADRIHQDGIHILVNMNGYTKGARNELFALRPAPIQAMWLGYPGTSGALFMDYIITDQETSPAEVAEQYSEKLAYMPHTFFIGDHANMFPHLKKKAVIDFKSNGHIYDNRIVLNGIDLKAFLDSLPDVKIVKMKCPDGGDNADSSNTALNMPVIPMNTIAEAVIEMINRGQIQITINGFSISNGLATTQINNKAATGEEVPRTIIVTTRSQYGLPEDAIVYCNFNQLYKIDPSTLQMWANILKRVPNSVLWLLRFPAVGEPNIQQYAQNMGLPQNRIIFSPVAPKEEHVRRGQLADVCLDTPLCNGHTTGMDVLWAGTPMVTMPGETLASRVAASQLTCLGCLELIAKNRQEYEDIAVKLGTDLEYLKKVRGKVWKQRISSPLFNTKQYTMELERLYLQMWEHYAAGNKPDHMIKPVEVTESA"}
{"Substitution": "GDFPVMFMTKYSIIY [P9T]", "fold enrichment [fold]": 4.32}
{"Substitution": "GDFPVMFMPKYSKIY [I13K]", "fold enrichment [fold]": 0.901}
{"Substitution": "GDFHVMFMPKYSIIY [P4H]", "fold enrichment [fold]": 4.95}
{"Substitution": "GDFPYMFMPKYSIIY [V5Y]", "fold enrichment [fold]": 4.73}
{"Substitution": "GDFAVMFMPKYSIIY [P4A]", "fold enrichment [fold]": 4.64}
{"Substitution": "GDFPVMFLPKYSIIY [M8L]", "fold enrichment [fold]": 6.98}
{"Substitution": "GDFPVMGMPKYSIIY [F7G]", "fold enrichment [fold]": 0.779}
{"Substitution": "GDEPVMFMPKYSIIY [F3E]", "fold enrichment [fold]": 4.44}
{"data": "Sample 2", "target": "PABPC1L2, full length, GST fusion (mouse, UniProt A0ABA7IW68)", "method": "RNAcompete", "form": "RNA", "sample": "in vitro", "concentration": "20 nM", "notes": "7-mer, probes averaged, single round", "baseline": "mean of 7-mers", "reading": "higher = stronger binding", "Construct (chain)": "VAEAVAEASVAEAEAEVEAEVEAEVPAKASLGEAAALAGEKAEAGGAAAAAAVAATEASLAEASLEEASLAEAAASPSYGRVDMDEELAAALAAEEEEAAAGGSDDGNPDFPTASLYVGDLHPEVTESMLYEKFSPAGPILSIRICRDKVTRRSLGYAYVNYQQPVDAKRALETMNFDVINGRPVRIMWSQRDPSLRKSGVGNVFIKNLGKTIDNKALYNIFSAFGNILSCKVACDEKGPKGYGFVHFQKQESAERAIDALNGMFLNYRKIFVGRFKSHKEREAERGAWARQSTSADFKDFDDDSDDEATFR"}
{"Strand": "AGUUGAA", "7-mer Z-score": -0.0681}
{"Strand": "GAGUCAU", "7-mer Z-score": -0.296}
{"Strand": "UGGCUGC", "7-mer Z-score": -0.0138}
{"Strand": "CGCAGCC", "7-mer Z-score": -0.331}
{"Strand": "ACCGCGU", "7-mer Z-score": -0.17}
{"Strand": "GGUCUCU", "7-mer Z-score": -0.336}
{"Strand": "GUGUGGG", "7-mer Z-score": 0.0189}
{"Strand": "AGCGGAG", "7-mer Z-score": 0.0823}
{"data": "Sample 3", "target": "RNA binding protein fox-1 homolog 2, RRM domain, GST-SBP tag (RBFOX2, Homo sapiens, UniProt O43251-10, residues 100-194)", "method": "RNA Bind-n-Seq", "form": "RNA", "sample": "in vitro", "concentration": "365 nM", "notes": "natural RNA segment, single round, ends assumed", "baseline": "no-protein control", "reading": "higher = stronger binding", "shared flanks, not repeated": "GGGAGUUCUACAGUCCGACGAUC … UGGAAUUCUCGGGUGCCAA", "Construct (chain)": "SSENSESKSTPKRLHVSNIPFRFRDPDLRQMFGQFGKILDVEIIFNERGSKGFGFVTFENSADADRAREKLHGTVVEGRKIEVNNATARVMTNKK"}
{"Strand": "GCUCAGCUGUGACUUUGGACUCUGGAGUGGAUGUCCUCAUGUUAGCAAACGUCCACUGUCCUUUCUCUAUCCCCCUCACUCAGCCUACACGUUACUCCAGCGCUACUCUU", "RBNS enrichment (R)": 0.627}
{"Strand": "CUCAUUUUAAUGUGUGCCUUAUGCCUUGAAUGGACCAGCUGAGAUCACUAUAUUUAUUCAAGCUGUGAUUGUUUUCUUUCUCACUCAAAAAAGAAUUUUGUAUGUUGUGG", "RBNS enrichment (R)": 2.16}
{"Strand": "ACGCUUCCAGCCCGGAGUGCUGGAGGCCCCCUAGCCCAGACAGACAUCUCUGCACCCUGGGGCCUGGACCUGCCUCCUGCCUGCCCCUCUCCCGCCAGACUGUUAGAAAA", "RBNS enrichment (R)": 0.487}
{"Strand": "ACUUUUCUUCAUGGGGCAAAGUCUGCCUCUUCUGCCAGGCAGUUCCCAUUUGCCCCUGUCCAGACUGUUUCUUUUGGCUUAGACCAUAAUCCUCUGCUGCCCGGGGCAUU", "RBNS enrichment (R)": 0.239}
{"Strand": "AGUUGUGUCUCUUUGGGAAUUGGAUUUGAUUUUUAUUAUUUAAUACCUCACUUUGGCCCGUCCCCCCUCCCAACACUUCUGUAUCCUCGCCCUGCCGCCCCAGCCUGGAC", "RBNS enrichment (R)": 0.533}
{"Strand": "GCAUUACUAGAACCAUUGUCAAAGCAGUGGCAAGGGACGGAGAGGUCCCAACAGGAGUCAGGAAGAGGUUUGAUUAUAACCAAGAAAACUCACUAUGCUAGGAAUAGACU", "RBNS enrichment (R)": 0.74}
{"Strand": "AAUGCCAUUAUUUGAUUAUACCAUUUUGAGGGUGAAUAUGGCUAGGCACUUUAGAUAAGCCUUUUUAAAAUUCUUUCUGAUUUUAAAUAAUGCGUCAAAAAAUGUGCAGA", "RBNS enrichment (R)": 0.632}
{"Strand": "AGAGCAUAGCUAAUGUACCUGGAAUCUGAGCAGCCCUGGUCUCAGCAGAGCCUGAAAUUAAACUCAUUUGUUUCCAGCAUCCGUGUGUUUGCACAAAGGAUUUGACGCCA", "RBNS enrichment (R)": 0.81}
{"data": "Sample 4", "target": "CCNE2, cyclin fold, Cln2 fusion (human)", "method": "yeast growth competition, sequencing", "sample": "yeast", "notes": "strong parent motif", "baseline": "not given", "reading": "higher = stronger binding", "parent": "viral docking peptide; YKVKRRLVFGADD"}
{"Substitution": "YKVKRRLVFGKDD [A11K]", "normalised enrichment score": 5.36}
{"Substitution": "YKVKRRLVFGDDD [A11D]", "normalised enrichment score": 6.11}
{"Substitution": "YKVKRRLVFGAGD [D12G]", "normalised enrichment score": 6.01}
{"Substitution": "YKVKRRLVFGALD [D12L]", "normalised enrichment score": 4.7}
{"Substitution": "YKVKRRLVFGMDD [A11M]", "normalised enrichment score": 5.55}
{"Substitution": "YKVKRRLTFGADD [V8T]", "normalised enrichment score": 5.38}
{"Substitution": "YKVKRRLVFGAHD [D12H]", "normalised enrichment score": 5.53}
{"Substitution": "YKVKRRAVFGADD [L7A]", "normalised enrichment score": 0.422}
{"Substitution": "YKEKRRLVFGADD [V3E]", "normalised enrichment score": 0.483}
{"Substitution": "YKVMRRLVFGADD [K4M]", "normalised enrichment score": 1.38}
{"Substitution": "YKVKRDLVFGADD [R6D]", "normalised enrichment score": 0.278}
{"Substitution": "YHVKRRLVFGADD [K2H]", "normalised enrichment score": 6.36}
{"Substitution": "YWVKRRLVFGADD [K2W]", "normalised enrichment score": 3.4}
{"Substitution": "YKVKRRHVFGADD [L7H]", "normalised enrichment score": 0.498}
{"Substitution": "YKVKRRLAFGADD [V8A]", "normalised enrichment score": 3.77}
{"Substitution": "YKVKRRLVQGADD [F9Q]", "normalised enrichment score": 0.771}
{"Substitution": "YKVKRRLVFGLDD [A11L]", "normalised enrichment score": 5.6}
{"Substitution": "YKVKRRGVFGADD [L7G]", "normalised enrichment score": 0.513}
{"Substitution": "YKVKRRLVFGWDD [A11W]", "normalised enrichment score": 4.95}
{"Substitution": "YKVTRRLVFGADD [K4T]", "normalised enrichment score": 2.14}
{"Substitution": "YKVKRRLVFGAVD [D12V]", "normalised enrichment score": 5.48}
{"Substitution": "YKVKARAVFGADD [R5A L7A]", "normalised enrichment score": 0.486}
{"Substitution": "YKVKKRLVLGADD [R5K F9L]", "normalised enrichment score": 0.271}
{"Substitution": "YKIKRRLVFGADD [V3I]", "normalised enrichment score": 2.97}
{"Substitution": "YKVGRRLVFGADD [K4G]", "normalised enrichment score": 0.993}
{"data": "Sample 5", "target": "Ras GTPase-activating protein-binding protein 1, RRM domain (G3BP1, Homo sapiens, UniProt Q13283)", "method": "RNA Bind-n-Seq", "form": "RNA", "sample": "in vitro", "concentration": "1 µM", "notes": "whole 134-nt RNA, ends assumed", "added": "150 mM KCl", "baseline": "input library", "reading": "higher = stronger binding", "shared flanks, not repeated": "GGGAGUUCUACAGUCCGACGAUC … UGGAAUUCUCGGGUGUCAAGG", "UniProt Q13283, sequence (whole entry, looked up)": "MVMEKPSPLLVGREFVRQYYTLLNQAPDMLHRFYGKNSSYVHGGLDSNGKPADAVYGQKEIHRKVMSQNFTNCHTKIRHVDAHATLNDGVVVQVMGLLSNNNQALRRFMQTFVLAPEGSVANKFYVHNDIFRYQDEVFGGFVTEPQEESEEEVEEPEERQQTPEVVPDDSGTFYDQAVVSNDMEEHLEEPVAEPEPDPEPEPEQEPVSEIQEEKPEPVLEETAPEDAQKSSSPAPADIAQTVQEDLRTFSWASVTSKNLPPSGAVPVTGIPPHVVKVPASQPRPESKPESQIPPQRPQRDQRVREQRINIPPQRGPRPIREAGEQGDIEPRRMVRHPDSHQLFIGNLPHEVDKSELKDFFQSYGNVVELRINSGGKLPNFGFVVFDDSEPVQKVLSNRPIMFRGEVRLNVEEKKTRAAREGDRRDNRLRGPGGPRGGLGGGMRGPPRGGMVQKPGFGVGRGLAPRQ"}
{"Strand": "CCUGUGCUACACAUCGUAUGUACCGAAUCGGGUUUUUUUGGGUUUUUGGGUUUUUUUGGGAAAGUAUUAUGUUACGCCGUUCGGAUCUGC", "log2 enrichment": -0.206}
{"Strand": "UGGCCCUGGUGGCAUGCGGGGAGGAAGAGGUGGCCUCAUGGAUCGUGGUGGUCGCGGUGGAAUGUUCAGAGGUGGCCGUGGUGGAGACAG", "log2 enrichment": 0.453}
{"Strand": "UAACUUUAGAGGAGGAUCUGAUGGAUAUGGCAGUGGACGUGGAUUUGGGAAUGGCUAUAAUGGGUAUGGAGGAGGACCUGGAGGUGGCAA", "log2 enrichment": -0.736}
{"Strand": "AGUCCUGUGCUACACAUCGUAUGUACCGAAUCGGGAAAAAAAGGGAAAGGGUUUGGGAAAGUAUUAUGUUACGCCGUUCGGAUCUGCACU", "log2 enrichment": 0.271}
{"Strand": "UGGCCCUGGUGGCAUGCGGGGAGGAAGAGGUGGCCUCAUGGAUCGUGGUGGUCCCGGUGGAAUGUACAGAGGUGGCCGUGGUGGAGACAG", "log2 enrichment": 1.51}
{"Strand": "UAACUUUAGAGGAGGAUCUGAUGGAUAUGGCAGUGGACGUGGAUUUGGGGAUGGCUAUAAUGGGUAUGGAGGAGGACCUGGAGGUGGGAA", "log2 enrichment": -0.272}
{"Strand": "GUCCUGUGCUACACAUCGUAUGUACCGAAUCGGGUUUUUGGUUUUUGGGGUUUUUGGGGAAAGUAUUAUGUUACGCCGUUCGGAUCUGCA", "log2 enrichment": -0.0141}
{"Strand": "AAGUCCUGUGCUACACAUCGUAUGUACCGAAUCGGGAAAAAGGGAAAAAGGGAGGGAAAGUAUUAUGUUACGCCGUUCGGAUCUGCACUU", "log2 enrichment": 0.979}
{"note": "Repeated from above (sample 4):"}
{"Substitution": "YKVKRRLVFGALD [D12L]", "normalised enrichment score": 4.7}
{"Substitution": "YKVTRRLVFGADD [K4T]", "normalised enrichment score": 2.14}
{"Substitution": "YKVKRRHVFGADD [L7H]", "normalised enrichment score": 0.498}
{"Substitution": "YKVKRRLVFGMDD [A11M]", "normalised enrichment score": 5.55}
{"Substitution": "YKVGRRLVFGADD [K4G]", "normalised enrichment score": 0.993}
{"Substitution": "YKVKKRLVLGADD [R5K F9L]", "normalised enrichment score": 0.271}
{"Substitution": "YKVKRRLVFGDDD [A11D]", "normalised enrichment score": 6.11}
